Measured values from different studies.
Parts stem from different laboratories: compare values within a part only.
Sequence of UniProt Q9NSY1 (whole entry, looked up): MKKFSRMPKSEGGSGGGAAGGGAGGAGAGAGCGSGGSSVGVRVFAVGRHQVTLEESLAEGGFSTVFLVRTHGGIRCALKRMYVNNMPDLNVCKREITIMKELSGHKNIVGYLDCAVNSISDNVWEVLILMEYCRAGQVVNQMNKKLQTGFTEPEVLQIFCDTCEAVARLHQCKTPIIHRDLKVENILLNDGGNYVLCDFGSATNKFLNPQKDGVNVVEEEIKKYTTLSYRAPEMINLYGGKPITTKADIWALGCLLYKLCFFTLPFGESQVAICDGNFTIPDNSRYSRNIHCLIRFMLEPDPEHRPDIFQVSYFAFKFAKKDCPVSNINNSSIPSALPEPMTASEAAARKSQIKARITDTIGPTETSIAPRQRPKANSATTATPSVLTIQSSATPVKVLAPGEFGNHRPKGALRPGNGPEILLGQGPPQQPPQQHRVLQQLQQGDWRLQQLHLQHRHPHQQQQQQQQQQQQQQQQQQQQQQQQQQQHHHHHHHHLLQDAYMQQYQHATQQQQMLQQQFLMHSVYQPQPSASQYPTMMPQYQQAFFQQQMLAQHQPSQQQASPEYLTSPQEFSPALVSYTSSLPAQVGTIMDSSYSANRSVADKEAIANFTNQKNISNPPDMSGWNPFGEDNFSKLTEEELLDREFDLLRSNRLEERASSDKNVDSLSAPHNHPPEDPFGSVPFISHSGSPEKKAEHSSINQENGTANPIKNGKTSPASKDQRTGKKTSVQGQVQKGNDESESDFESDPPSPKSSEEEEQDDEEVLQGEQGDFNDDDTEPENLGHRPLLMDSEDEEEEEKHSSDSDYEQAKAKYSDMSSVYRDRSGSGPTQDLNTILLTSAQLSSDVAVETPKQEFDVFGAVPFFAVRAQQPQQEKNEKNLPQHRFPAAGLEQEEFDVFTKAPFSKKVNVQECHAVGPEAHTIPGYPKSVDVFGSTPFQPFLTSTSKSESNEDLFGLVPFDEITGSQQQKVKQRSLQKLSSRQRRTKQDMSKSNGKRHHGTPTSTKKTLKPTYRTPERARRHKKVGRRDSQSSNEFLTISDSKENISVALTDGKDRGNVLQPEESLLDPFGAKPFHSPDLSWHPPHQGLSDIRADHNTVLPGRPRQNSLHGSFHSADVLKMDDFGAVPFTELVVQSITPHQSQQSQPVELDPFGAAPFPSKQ
Sequence of UniProt Q92918 (whole entry, looked up): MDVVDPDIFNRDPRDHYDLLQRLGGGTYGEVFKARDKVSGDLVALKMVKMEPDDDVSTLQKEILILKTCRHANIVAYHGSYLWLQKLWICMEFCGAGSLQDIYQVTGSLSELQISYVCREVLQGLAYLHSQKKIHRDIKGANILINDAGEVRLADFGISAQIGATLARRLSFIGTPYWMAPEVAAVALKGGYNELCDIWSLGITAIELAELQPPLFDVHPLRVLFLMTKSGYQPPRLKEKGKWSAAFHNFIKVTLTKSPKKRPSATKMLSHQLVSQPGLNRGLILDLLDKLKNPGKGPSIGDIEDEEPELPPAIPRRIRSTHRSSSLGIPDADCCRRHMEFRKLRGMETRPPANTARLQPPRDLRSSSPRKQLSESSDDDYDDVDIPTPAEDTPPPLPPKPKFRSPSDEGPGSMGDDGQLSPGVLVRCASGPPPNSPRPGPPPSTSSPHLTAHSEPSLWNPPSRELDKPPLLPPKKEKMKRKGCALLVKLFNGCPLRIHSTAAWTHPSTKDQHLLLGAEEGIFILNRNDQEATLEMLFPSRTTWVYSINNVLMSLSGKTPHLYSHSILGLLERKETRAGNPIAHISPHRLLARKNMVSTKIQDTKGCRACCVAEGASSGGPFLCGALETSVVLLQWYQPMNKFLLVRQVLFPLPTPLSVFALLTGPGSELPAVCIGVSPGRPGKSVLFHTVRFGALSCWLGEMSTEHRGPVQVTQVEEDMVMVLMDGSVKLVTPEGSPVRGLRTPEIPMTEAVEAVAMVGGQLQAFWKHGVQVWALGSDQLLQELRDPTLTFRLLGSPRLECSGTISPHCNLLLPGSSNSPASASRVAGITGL
Sequence of UniProt Q9UK32 (whole entry, looked up): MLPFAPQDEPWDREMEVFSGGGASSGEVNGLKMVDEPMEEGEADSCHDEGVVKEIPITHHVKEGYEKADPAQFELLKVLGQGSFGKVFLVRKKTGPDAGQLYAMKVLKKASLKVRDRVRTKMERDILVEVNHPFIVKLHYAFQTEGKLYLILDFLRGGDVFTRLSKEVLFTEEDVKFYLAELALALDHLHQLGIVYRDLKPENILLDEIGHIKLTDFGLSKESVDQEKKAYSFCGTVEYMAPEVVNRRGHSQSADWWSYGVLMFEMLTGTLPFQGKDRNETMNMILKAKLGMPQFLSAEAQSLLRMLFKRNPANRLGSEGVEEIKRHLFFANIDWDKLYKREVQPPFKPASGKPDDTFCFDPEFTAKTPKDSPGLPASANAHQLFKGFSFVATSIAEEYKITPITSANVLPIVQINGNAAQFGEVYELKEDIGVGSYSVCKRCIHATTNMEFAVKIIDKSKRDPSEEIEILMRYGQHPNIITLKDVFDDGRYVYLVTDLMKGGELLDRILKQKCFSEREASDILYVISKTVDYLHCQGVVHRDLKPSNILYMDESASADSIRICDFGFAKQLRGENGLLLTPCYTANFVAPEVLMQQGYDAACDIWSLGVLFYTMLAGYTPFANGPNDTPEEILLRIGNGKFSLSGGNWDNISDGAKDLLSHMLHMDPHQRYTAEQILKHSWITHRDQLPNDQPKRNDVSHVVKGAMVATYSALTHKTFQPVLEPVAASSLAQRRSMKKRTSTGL
Sequence of UniProt Q12852 (whole entry, looked up): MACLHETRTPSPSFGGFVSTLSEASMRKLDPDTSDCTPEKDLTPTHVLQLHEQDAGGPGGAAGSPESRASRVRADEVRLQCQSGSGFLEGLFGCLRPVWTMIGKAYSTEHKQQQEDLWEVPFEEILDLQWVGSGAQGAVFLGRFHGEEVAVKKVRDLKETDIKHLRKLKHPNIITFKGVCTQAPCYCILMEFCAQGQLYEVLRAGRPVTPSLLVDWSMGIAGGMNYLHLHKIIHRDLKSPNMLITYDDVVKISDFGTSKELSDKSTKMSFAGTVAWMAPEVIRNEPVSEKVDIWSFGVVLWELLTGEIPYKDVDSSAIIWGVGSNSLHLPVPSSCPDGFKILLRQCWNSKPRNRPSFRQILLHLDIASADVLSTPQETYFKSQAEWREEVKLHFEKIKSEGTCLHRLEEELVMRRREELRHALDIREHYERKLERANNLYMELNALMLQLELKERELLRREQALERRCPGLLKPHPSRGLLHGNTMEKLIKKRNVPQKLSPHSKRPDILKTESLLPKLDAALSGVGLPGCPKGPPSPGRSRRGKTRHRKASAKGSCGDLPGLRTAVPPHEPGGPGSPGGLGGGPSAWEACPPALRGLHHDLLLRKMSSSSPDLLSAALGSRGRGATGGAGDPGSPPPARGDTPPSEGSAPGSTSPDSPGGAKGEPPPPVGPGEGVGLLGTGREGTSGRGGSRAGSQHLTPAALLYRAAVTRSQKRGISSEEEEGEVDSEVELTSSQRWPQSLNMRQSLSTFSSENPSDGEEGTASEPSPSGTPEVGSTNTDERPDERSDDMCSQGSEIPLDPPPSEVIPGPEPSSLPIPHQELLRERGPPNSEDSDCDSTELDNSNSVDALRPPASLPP

Study 1 — effect on: cell-free assay; method: competition with immobilised ligand; concentration: 1 µM; quantity: remaining binding
SMILES: CCCCN(CCCC)C(=O)CN1C[C@H](c2cc(OC)c3c(c2)OCO3)[C@@H](C(=O)O)[C@@H]1CC(C)(C)CCC
target = HASPIN (Homo sapiens, UniProt Q8TF76); value = 75.8%
target = MAP4K1 (Homo sapiens, UniProt Q92918); value = 90.6%
target = BMP2K (Homo sapiens, UniProt Q9NSY1); value = 100%
target = FLT3 (Homo sapiens, UniProt P36888, K663Q); value = 100%
target = Ribosomal protein S6 kinase alpha-6, C-terminal kinase domain (RPS6KA6, Homo sapiens, UniProt Q9UK32); value = 100%
target = MAP3K12 (Homo sapiens, UniProt Q12852); value = 72.1%

Study 2 — cell line: A-375; concentration: 100 µM; time: 36 h; quantity: viability
SMILES = O=[N+]([O-])c1ccc(O)c2ncccc12; value = 18.3%
SMILES = CSCC1CN(/N=C/c2ccc([N+](=O)[O-])o2)C(=O)O1 (stereo not shown); value = 32.9%
SMILES = CC(=O)[C@@]1(O)CC[C@H]2[C@@H]3C[C@H](C)C4=CC(=O)C=C[C@]4(C)[C@@]3(F)[C@@H](O)C[C@@]21C; value = 98.5%
SMILES = Clc1ccc(C(c2ccccc2Cl)C(Cl)Cl)cc1 (stereo not shown); value = -0.937%
SMILES = COc1cc(NC(C)CCCN)c2ncccc2c1 (stereo not shown); value = 0.262%
SMILES = O=C(CCCN1CC=C(n2c(=O)[nH]c3ccccc32)CC1)c1ccc(F)cc1; value = 36.2%
SMILES = Cc1ccsc1/C=C/C1=NCCCN1C; value = 125%
SMILES = Cc1c(Nc2ncccc2C(=O)O)cccc1C(F)(F)F; value = 67.7%
SMILES = Cc1cc(C(C#N)c2ccc(Cl)cc2)c(Cl)cc1NC(=O)c1cc(I)cc(I)c1O (stereo not shown); value = 18.3%

Study 3 — effect on: enzyme activity; action: inhibitor; concentration: 0.5 µM; reference: control; quantity: remaining activity
Target: Serine/threonine-protein kinase BRSK2 (BRSK2, Homo sapiens, UniProt Q8IWQ3)
Sequence of UniProt Q8IWQ3 (whole entry, looked up): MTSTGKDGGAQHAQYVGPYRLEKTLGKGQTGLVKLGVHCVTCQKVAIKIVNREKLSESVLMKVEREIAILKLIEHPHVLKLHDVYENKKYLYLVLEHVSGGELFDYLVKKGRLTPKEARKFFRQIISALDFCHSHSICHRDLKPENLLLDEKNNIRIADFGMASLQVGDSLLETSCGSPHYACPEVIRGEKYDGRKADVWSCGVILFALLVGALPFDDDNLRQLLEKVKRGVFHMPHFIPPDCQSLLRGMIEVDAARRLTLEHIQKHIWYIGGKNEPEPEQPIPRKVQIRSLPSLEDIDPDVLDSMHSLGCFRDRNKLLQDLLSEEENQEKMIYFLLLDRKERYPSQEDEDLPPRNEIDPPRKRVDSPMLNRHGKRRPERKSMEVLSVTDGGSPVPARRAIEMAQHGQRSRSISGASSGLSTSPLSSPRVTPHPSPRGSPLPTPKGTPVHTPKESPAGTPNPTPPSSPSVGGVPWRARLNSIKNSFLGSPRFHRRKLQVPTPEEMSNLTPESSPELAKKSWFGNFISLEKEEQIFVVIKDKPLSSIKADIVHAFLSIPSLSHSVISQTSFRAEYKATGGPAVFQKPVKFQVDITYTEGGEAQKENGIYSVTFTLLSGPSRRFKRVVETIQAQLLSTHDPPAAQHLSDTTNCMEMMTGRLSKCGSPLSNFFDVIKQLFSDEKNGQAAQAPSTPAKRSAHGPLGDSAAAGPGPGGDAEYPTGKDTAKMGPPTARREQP
Compound = CC(C)[C@H](CO)Nc1nc(Nc2cc(N)cc(Cl)c2)c2ncn(C(C)C)c2n1; value = 88.2%
Compound = O=C(O)c1ccc2c3c1cccc3c(=O)n1c3ccccc3nc21; value = 90.4%
Compound = COc1ccc(OC)c2c(=S)c3ccccc3[nH]c12; value = 92.5%
Compound = Cc1ccc(Nc2nccc(N(C)c3ccc4c(C)n(C)nc4c3)n2)cc1S(N)(=O)=O; value = 101%
Compound = COc1cc2ncnc(Nc3ccc(Oc4ccccc4)cc3)c2cc1OC; value = 101%
Compound = OCC(O)CCON=C1C(c2c(O)[nH]c3ccccc23)=Nc2ccccc21 (stereo not shown); value = 33.3%
Compound = Cc1nc(-c2ccccc2)c(-c2ccncc2)o1; value = 95%
Compound = C#Cc1cccc(Nc2ncnc3cc(OCCOC)c(OCCOC)cc23)c1; value = 100%
Compound = Cn1c2ccccc2c2c3c(c4c5ccccc5n(CCC#N)c4c21)CNC3=O; value = 26.3%
Compound = O=C1NC(=O)C(c2cn(CCCO)c3ncccc23)=C1c1cnccn1; value = 90.4%
Compound = N#CC(C#N)=C(N)/C(C#N)=C/c1ccc(O)cc1; value = 101%
Compound = COc1cc2ncnc(Nc3ccc(F)c(Cl)c3)c2cc1OCCCN1CCOCC1; value = 103%
Compound = NCCNc1ncc(C(N)=O)c(Nc2cccc(C(F)(F)F)c2)n1; value = 96.9%
Compound = CN(C)c1ccc(C=C2C(=O)Nc3ccccc32)cc1; value = 93%

Study 4 — cell line: mouse MPNST tumor cells; method: high-content immunofluorescence imaging; refers to: nuclear SOX9; concentration: 10 µM; time: 12 h; setting: mean of 2 replicates; reference: DMSO control; direction: higher = more nuclear SOX9; quantity: nuclear SOX9 intensity
SMILES = CO[C@@]1(NC(=O)Cc2cccs2)C(=O)N2C(C(=O)O)=C(COC(N)=O)CS[C@@H]21; value = 90 % of DMSO
SMILES = COc1c(O[C@@H]2O[C@H](CO)[C@@H](O)[C@H](O)[C@H]2O)cc2c(c1OC)-c1ccc(SC)c(=O)cc1[C@@H](NC(C)=O)CC2; value = 112 % of DMSO
SMILES = Nc1ncn([C@H]2C[C@H](O)[C@@H](CO)O2)c(=O)n1; value = 117 % of DMSO
SMILES = O=C(NC/C=C/CN1CCN(c2cccc(Cl)c2Cl)CC1)c1ccc(-c2ccccn2)cc1; value = 186 % of DMSO
SMILES = Cc1cnc(-c2cc(N3CCN(C(=O)CCS(C)(=O)=O)CC3)ncc2Cl)c(C)c1; value = 93.9 % of DMSO

Some of these lines once more (study 1):
target = MAP3K12 (Homo sapiens, UniProt Q12852); value = 72.1%
target = MAP4K1 (Homo sapiens, UniProt Q92918); value = 90.6%
